Measurements of several laboratories.
A part holds a random share of what one study measured.

Set 1
Target: Sal-like protein 4, full length isoform A (SALL4, Homo sapiens, UniProt Q9UJQ4, residues 1-1053)
UniProt Q9UJQ4, sequence (whole entry, looked up): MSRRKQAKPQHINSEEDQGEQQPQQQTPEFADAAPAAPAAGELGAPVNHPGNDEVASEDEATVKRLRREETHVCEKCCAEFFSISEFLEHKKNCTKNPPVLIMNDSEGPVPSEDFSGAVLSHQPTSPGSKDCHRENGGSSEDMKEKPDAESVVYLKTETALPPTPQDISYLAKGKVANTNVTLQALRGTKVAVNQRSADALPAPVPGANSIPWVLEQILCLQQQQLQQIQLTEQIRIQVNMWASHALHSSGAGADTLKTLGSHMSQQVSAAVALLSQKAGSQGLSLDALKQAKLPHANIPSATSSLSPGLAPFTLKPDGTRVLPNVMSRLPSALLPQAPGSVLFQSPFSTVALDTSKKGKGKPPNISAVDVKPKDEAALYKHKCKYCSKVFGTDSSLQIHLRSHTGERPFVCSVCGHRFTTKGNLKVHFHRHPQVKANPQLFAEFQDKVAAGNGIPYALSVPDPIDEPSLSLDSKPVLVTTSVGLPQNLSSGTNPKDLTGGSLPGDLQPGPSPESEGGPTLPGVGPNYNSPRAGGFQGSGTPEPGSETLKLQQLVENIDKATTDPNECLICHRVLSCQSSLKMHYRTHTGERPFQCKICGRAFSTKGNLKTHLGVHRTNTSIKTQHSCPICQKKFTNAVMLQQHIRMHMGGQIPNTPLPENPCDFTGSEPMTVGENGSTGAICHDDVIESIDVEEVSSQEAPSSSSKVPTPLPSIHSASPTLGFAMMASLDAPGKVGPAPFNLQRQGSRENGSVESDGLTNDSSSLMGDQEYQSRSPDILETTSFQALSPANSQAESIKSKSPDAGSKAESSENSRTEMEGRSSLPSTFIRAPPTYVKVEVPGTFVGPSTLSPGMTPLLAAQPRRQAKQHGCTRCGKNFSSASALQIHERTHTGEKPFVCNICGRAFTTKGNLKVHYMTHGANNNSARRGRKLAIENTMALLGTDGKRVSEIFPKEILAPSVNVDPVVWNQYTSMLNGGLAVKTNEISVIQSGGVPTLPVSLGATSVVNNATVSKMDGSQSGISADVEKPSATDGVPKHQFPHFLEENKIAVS
Technique: universal PBM
Form: double-stranded DNA, one strand shown
Sample: in vitro
Tested at: 600 nM
Notes: 8-mer, flanks averaged, mean of replicates
Reading: higher = stronger binding
`CGAGAGCA` gave an E-score of -0.0619.
`CCTGTGTA` has an E-score of 0.148.
With `AGCCCATG` the E-score was -0.16.

Set 2
Target: Histone acetyltransferase KAT6A, winged helix 1, GST fusion (KAT6A, Homo sapiens, UniProt Q92794, residues 1-85)
Technique: protein binding microarray
Form: double-stranded DNA, one strand shown
Sample: in vitro
Tested at: not given
Notes: 8-mer, flanks averaged, mean of 2 arrays, mostly near background
Baseline: not given
Reading: higher = stronger binding
Target sequence (chain): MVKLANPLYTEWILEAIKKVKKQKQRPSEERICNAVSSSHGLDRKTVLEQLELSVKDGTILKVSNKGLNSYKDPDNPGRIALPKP
With `GGTTACAC` the E-score was -0.0562.
For `CGGAGTAC`, the E-score was 0.179.
For `CCTGGCGC`, the E-score was 0.29.

Set 3
Target: Hepatocyte nuclear factor 3-beta, forkhead domain (FOXA2, Homo sapiens, UniProt Q9Y261, residues 142-269)
Technique: protein-binding microarray
Form: double-stranded DNA, one strand shown
Sample: in vitro
Tested at: not given
Notes: k-mer, scored over probes, only values ≥0.25
Reading: higher = stronger binding
Residues (chain): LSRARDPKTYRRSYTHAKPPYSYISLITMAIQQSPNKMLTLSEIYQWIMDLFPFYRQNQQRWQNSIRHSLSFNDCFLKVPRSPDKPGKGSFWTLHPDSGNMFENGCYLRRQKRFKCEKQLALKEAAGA
`ATAGAGAT` has an E-score of 0.284.
`TAGACATA` has an E-score of 0.353.
`CATATATG` has an E-score of 0.444.
For `ACATAATC`, the E-score was 0.315.

Other studies, line by line
For `PhoQ, residues 284 288 289 292 302 303 TASMAF`, the fold induction was 13.9 (PhoP, residues 12 14 15 18 19 TPWLV (Escherichia coli, UniProt P23836); Sort-seq, item: YFP reporter; E. coli; PhoQ-PhoP variant library, with: 10 µM Mg2+; baseline: high Mg2+ state, higher = stronger signaling).

Some of these lines once more (set 2):
With `GGTTACAC` the E-score was -0.0562.
